Measured values collected from several papers.
Compare with care: the assays were run in different laboratories. Numbers after ± are the reported error.

| Structure (SMILES) | test | system | conditions | half-life |
| --- | --- | --- | --- | --- |
| Cc1c(Cc2ccc(Cl)c(O[C@@H](C)C(=O)O)c2)c2ccc(C(=O)N[C@@H](C)c3ccc(C(C)(C)C)cc3)cc2n1CC1CCC1 |  | human liver microsomes | 1 µM, with: microsomes 1 mg/mL | > 1 h |
| O=S(=O)(Cl)c1cc(C(F)(F)F)cc(C(F)(F)F)c1 | reactivity with N-α-acetyl-lysine, HPLC-MS |  | pH 10.2 | < 0.0167 h |
| Cc1c(Cc2cccc(OC(C)(C)C(=O)O)c2)c2ccc(C(=O)N[C@@H](C)c3cccc(C(C)(C)C)c3)cc2n1CC(C)(C)C |  | human liver microsomes |  | 0.691 h |
| Brc1cccnc1 |  |  | pH 7.4 | 45.7 h |
| O=C(Cc1ccc(F)cc1)NCCOc1ccc(-c2ccc(F)cc2)nn1 |  |  | oral, 20 mg/kg | 2.3 ± 0.6 h |
| CCn1c(C)c(Cc2ccc(Cl)c(O[C@H](C)C(=O)O)c2)c2ccc(C(=O)N[C@@H](C)c3ccc(C(C)(C)C)cc3)cc21 |  | human liver microsomes | 1 µM, with: microsomes 1 mg/mL | > 1 h |
| O=C(NC1CCC(F)(F)CC1)C(c1cncnc1)N(C(=O)C(F)Cl)c1ccc(-c2cncs2)cc1 (centres unmarked) |  | human liver microsomes | concentration not given, pH 7.4 | 0.782 h |
| OB(O)c1sccc1/C=N/OCc1ccccc1 | UV-visible spectroscopy | PBS | 80 µM, pH 7.4 | 1.97 h |
| CCCC/C=C/C(=O)N[C@@H](Cc1cc(F)cc(F)c1)C(=O)N[C@H]1COC(=O)[C@@H]2CCCN2C(=O)[C@H](C)NC(=O)[C@@H]2CCCCN2C(=O)[C@@H]2CCCN2C1=O | H-D exchange, 1H NMR, item: alanine amide hydrogen | CD3OD | 25 °C | 1.03 h |
| Cc1c(Cc2ccc(OC(C)C(=O)O)cc2)c2ccc(C(=O)NC(C)c3ccc(C(C)(C)C)cc3)cc2n1C (mixture of isomers) |  | mouse liver microsomes | 1 µM, with: microsomes 1 mg/mL | > 1 h |
| N=C(N)NCCC[C@H](NC(=O)[C@@H](CCCNC(=N)N)NC(=O)CS)C(=O)N[C@H](CCCNC(=N)N)C(=O)N[C@@H](CCCNC(=N)N)C(=O)N[C@@H](CS)C(=O)N[C@@H](Cc1ccc2ccccc2c1)C(=O)N[C@@H](Cc1csc2ccccc12)C(=O)N[C@H](Cc1ccc2ccccc2c1)C(=O)N[C@@H](CS)C(=O)NCCOCCOCC(=O)N[C@@H](CCCCNC(=O)c1ccc2c(c1)C(=O)OC21c2ccc3cc(O)ccc3c2Oc2c1ccc1cc(O)ccc21)C(N)=O | UPLC-MS | 25% human serum in PBS | 100 µM, proteolytic stability | 0.9 h |
| O=C1CCC(N2Cc3c(NC(=O)OCc4cc(C(=O)O)ccc4OP(=O)(O)O)cccc3C2=O)C(=O)N1 (centres unmarked) |  | HBSS | 10 µM, 2 h incubation, pH 6.5 | > 2 h |
| CCn1c(C)c(Cc2cccc(OC(C)(C)C(=O)O)c2)c2ccc(C(=O)N[C@@H](C)c3cccc(C(C)(C)C)c3)cc21 |  | human liver microsomes |  | 0.85 h |
| O=Cc1cc(C(F)(F)F)ccc1B(O)O | reactivity with N-α-acetyl-lysine, HPLC-MS |  | pH 10.2 | 110 h |
| CSCc1cn(-c2cccc(C(=O)N3CCC(c4nc(-c5ccccc5)n[nH]4)CC3)c2)nn1 |  | CD-1 mouse liver microsomes | pH 7.4, with: NADPH | 0.02 h |
| O=c1c(-c2cnn(-c3ccccc3)c2)c(C(F)(F)F)oc2c(O)c(O)ccc12 |  | human plasma |  | > 8.33 h |

| Structure (SMILES) | test | system | conditions | half-life |
| --- | --- | --- | --- | --- |
| O=C=Nc1cc(C(F)(F)F)cc(C(F)(F)F)c1 | chemical stability, HPLC-MS | BBS buffer with acetonitrile | pH 10.2 | < 0.0167 h |
| Brc1ncc[nH]1 |  |  | pH 7.4 | 150 h |
| Cc1c(Cc2cc(F)cc(OC(C)(C)C(=O)O)c2)c2ccc(C(=O)N[C@@H](C)c3cccc(C(C)(C)C)c3)cc2n1CC(C)C |  | human liver microsomes | 1 µM, with: microsomes 1 mg/mL | > 1 h |
| O=Cc1cc(C(F)(F)F)cc(C(F)(F)F)c1 | reactivity with N-α-acetyl-lysine, HPLC-MS |  | pH 10.2 | > 24 h |
| O=C(Nc1cccc(C(=O)N2CCC(c3nc(-c4ccccc4)n[nH]3)CC2)c1)c1ccccc1 |  | human liver microsomes | pH 7.4, with: NADPH | > 2 h |
| CCN(CC)c1ccc2c(c1)O[B-]1(c3ccccc3C#N)OC(=O)C(c3ccccc3)=N[N+]1=C2CC(C)C (centres unmarked) |  | DMEM with ammonium acetate | 10 µM, pH 7, 2% DMSO, cell-free | 128 h |
| Cc1c(Cc2ccc(Cl)c(O[C@H](C)C(=O)O)c2)c2ccc(C(=O)N[C@@H](C)c3ccc(C(C)(C)C)cc3)cc2n1CC(C)C |  | human liver microsomes | 1 µM, with: microsomes 1 mg/mL | > 1 h |
| Cc1ccc(C(C)C)cc1.O=C(N=P12CN3CN(CN(C3)C1)C2)c1[c-]cccc1.[Cl-].[Ru+2] |  | DMSO-d6 |  | ~1 weeks |
| O=C(O)c1ccc(OP(=O)(O)O)c(CN2CCC(=C3c4ccc(Cl)cc4CCc4cccnc43)CC2)c1 |  | simulated gastric fluid | 10 µM, 2 h incubation, pH 1.2 | > 2 h |
| N=C(N)NCCC[C@@H]1NC(=O)[C@H](CO)NC(=O)[C@@H](NC(=O)[C@H](CO)NC(=O)[C@H](CO)NC(=O)[C@H](Cc2c[nH]c3ccccc23)NC(=O)CNC(=O)[C@H](CO)NC(=O)[C@@H](N)Cc2c[nH]c3ccccc23)CSSC[C@@H](C(=O)NCC(=O)O)NC(=O)[C@H](CO)NC1=O |  | patients, plasma | intravenous, 10 mg/kg, thrice weekly, mean | 0.286 h |
| Cc1cc(C)nc(SCC(=O)Nc2ncc(Cc3cccc4ccccc34)s2)n1 |  | male human serum | 150 µM, 37 °C | > 24 h |
| CCC[C@H]1C(=O)N(C)[C@@H](CCC)C(=O)N[C@@H](CC(C)C)C(=O)N[C@@H](Cc2ccc(O)cc2)C(=O)N[C@@H](CC(=O)O)C(=O)N[C@@H](CC(=O)O)C(=O)N[C@H](C(N)=O)CCCCNC(=O)CCCC(=O)N[C@@H](CCSC)C(=O)N[C@@H](C(C)C)C(=O)N[C@@H](CS)C(=O)N1C |  | human serum, delipidated, reconstituted | 238 µM, 37 °C | ~93.3 h |
| Clc1cnccn1 |  |  | pH 7.4 | 77.1 h |
| CCN(CC)c1ccc2cc(C(=O)ON3C(=O)CCC3=O)c(=O)oc2c1 | reactivity with N-α-acetyl-lysine, HPLC-MS |  | pH 10.2 | < 0.0167 h |
| Cc1c(Cc2cc(Cl)cc(OC(C)C(=O)O)c2)c2ccc(C(=O)NC(C)c3ccc(C(C)(C)C)cc3)cc2n1CC1CC1 (centres unmarked) |  | mouse liver microsomes | 1 µM, with: microsomes 1 mg/mL | > 1 h |
| CC(C)(C)C12CC(CN3CCN(C(c4ccccc4)c4ccc(Cl)cc4)CC3)(C1)C2 (centres unmarked) | metabolic stability | human liver microsomes |  | ~3.25 h |

A few entries again:
| Structure (SMILES) | test | system | conditions | half-life |
| --- | --- | --- | --- | --- |
| Cc1c(Cc2ccc(OC(C)C(=O)O)cc2)c2ccc(C(=O)NC(C)c3ccc(C(C)(C)C)cc3)cc2n1C (mixture of isomers) |  | mouse liver microsomes | 1 µM, with: microsomes 1 mg/mL | > 1 h |
| O=C(Cc1ccc(F)cc1)NCCOc1ccc(-c2ccc(F)cc2)nn1 |  |  | oral, 20 mg/kg | 2.3 ± 0.6 h |
| Cc1c(Cc2cc(Cl)cc(OC(C)C(=O)O)c2)c2ccc(C(=O)NC(C)c3ccc(C(C)(C)C)cc3)cc2n1CC1CC1 (centres unmarked) |  | mouse liver microsomes | 1 µM, with: microsomes 1 mg/mL | > 1 h |
| CCC[C@H]1C(=O)N(C)[C@@H](CCC)C(=O)N[C@@H](CC(C)C)C(=O)N[C@@H](Cc2ccc(O)cc2)C(=O)N[C@@H](CC(=O)O)C(=O)N[C@@H](CC(=O)O)C(=O)N[C@H](C(N)=O)CCCCNC(=O)CCCC(=O)N[C@@H](CCSC)C(=O)N[C@@H](C(C)C)C(=O)N[C@@H](CS)C(=O)N1C |  | human serum, delipidated, reconstituted | 238 µM, 37 °C | ~93.3 h |
| O=Cc1cc(C(F)(F)F)ccc1B(O)O | reactivity with N-α-acetyl-lysine, HPLC-MS |  | pH 10.2 | 110 h |
